# Results from different studies.
# Each numbered part is a random draw from the data of one study; scales do not carry over between parts.
# UniProt P27361, sequence (whole entry, looked up): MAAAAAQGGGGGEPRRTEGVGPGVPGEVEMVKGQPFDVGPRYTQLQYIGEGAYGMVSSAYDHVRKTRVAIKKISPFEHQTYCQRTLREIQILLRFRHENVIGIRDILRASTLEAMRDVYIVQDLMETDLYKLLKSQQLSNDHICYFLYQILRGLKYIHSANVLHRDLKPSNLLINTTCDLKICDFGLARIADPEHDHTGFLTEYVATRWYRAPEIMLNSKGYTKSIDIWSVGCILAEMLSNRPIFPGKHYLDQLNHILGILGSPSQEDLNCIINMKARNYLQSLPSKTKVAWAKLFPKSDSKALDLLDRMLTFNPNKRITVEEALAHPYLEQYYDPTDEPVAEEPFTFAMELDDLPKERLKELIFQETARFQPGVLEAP
# UniProt P49841, sequence (whole entry, looked up): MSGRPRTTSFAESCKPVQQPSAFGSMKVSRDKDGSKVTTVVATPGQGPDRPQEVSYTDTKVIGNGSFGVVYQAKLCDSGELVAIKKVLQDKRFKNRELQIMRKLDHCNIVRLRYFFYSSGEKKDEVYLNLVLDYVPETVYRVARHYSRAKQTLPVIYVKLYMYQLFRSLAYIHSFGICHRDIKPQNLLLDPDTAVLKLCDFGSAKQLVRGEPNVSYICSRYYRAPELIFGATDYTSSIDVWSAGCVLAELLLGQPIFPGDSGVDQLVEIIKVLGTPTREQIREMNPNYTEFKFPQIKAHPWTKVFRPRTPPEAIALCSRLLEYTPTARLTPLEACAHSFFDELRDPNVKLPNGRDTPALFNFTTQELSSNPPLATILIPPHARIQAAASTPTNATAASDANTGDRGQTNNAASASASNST
# UniProt Q9Y4K4, sequence (whole entry, looked up): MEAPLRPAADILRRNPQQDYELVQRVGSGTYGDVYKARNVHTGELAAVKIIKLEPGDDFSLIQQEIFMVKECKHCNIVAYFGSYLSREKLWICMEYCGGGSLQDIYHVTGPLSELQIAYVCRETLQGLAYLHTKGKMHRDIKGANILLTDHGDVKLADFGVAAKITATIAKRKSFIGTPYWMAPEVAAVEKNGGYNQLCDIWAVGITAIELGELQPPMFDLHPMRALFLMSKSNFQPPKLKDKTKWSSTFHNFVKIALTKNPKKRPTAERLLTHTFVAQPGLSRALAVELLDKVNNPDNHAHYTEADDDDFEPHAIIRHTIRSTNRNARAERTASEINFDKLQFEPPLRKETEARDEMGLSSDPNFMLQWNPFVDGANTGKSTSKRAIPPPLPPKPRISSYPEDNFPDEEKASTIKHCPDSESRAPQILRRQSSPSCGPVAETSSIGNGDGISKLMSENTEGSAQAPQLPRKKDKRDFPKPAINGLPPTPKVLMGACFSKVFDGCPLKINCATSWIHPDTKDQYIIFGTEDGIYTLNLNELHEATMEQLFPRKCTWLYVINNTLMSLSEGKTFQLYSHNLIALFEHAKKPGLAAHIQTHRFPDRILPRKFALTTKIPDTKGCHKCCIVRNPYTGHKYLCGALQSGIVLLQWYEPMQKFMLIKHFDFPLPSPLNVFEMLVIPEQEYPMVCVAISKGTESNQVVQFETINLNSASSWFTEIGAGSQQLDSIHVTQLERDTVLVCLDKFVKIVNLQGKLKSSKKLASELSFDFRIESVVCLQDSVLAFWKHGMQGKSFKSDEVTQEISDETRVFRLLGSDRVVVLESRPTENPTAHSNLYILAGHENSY
# UniProt Q07912, sequence (whole entry, looked up): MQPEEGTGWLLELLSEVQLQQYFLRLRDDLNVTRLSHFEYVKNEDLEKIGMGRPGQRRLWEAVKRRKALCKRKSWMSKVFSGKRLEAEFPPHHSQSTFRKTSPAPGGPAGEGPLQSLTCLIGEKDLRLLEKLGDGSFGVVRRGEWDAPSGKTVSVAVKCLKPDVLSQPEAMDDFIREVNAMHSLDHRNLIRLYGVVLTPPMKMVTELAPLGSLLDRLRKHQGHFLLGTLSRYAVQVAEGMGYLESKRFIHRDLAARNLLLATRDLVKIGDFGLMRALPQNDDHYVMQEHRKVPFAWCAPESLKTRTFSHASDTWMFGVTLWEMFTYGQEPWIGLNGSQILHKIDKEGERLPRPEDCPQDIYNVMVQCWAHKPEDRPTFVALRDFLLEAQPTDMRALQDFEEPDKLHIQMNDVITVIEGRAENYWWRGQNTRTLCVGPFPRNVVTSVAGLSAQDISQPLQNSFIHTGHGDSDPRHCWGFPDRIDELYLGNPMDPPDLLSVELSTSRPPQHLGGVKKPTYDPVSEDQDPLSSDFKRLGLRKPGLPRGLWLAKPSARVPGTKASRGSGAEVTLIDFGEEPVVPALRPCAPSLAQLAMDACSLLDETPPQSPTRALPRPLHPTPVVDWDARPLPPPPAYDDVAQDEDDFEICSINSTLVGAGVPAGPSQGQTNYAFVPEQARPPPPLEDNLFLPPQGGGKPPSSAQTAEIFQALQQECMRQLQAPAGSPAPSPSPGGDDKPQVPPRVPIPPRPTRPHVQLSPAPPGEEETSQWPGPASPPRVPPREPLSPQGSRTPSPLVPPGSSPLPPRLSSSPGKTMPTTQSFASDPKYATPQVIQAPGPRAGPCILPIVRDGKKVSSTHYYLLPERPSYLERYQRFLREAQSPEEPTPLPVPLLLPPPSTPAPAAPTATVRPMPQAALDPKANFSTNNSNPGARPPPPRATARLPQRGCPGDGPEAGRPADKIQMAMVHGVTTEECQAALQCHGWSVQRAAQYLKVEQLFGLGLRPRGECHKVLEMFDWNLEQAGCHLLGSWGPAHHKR
# UniProt P49137, sequence (whole entry, looked up): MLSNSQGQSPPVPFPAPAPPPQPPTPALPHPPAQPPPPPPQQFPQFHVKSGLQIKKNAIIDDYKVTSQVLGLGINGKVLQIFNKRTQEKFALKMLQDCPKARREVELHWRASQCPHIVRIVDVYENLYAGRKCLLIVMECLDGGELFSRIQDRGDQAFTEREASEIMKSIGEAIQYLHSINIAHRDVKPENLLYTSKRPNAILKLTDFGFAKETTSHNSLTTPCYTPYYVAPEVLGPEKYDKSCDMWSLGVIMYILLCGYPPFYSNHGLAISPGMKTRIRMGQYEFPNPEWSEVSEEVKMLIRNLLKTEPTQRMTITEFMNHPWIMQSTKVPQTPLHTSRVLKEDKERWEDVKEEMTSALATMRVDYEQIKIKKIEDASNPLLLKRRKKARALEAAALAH
# UniProt Q99558, sequence (whole entry, looked up): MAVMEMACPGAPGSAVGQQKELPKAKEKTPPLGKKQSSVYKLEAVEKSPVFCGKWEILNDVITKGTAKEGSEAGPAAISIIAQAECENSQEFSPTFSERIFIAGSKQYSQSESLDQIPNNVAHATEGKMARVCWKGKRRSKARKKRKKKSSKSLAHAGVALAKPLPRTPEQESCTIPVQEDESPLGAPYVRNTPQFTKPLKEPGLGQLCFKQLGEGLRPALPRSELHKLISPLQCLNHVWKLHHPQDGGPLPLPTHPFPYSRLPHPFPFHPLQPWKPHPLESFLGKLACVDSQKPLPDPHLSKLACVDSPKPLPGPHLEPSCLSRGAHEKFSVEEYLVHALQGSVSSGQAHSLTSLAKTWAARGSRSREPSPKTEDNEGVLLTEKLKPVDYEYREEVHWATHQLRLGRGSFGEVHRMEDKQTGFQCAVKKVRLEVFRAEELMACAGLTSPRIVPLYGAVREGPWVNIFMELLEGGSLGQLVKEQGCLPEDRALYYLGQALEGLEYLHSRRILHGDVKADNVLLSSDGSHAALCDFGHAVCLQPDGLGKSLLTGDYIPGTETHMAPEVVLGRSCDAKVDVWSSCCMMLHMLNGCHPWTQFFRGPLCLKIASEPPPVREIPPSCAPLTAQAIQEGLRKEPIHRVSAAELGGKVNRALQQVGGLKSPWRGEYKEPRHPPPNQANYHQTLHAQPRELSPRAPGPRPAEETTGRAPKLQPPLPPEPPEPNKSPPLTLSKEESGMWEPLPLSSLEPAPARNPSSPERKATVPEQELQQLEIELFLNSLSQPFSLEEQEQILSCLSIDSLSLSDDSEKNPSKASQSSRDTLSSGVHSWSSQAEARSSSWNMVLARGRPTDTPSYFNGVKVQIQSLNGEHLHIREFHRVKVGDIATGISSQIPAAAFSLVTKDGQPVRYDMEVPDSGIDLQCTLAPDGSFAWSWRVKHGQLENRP
# UniProt Q9NRH2, sequence (whole entry, looked up): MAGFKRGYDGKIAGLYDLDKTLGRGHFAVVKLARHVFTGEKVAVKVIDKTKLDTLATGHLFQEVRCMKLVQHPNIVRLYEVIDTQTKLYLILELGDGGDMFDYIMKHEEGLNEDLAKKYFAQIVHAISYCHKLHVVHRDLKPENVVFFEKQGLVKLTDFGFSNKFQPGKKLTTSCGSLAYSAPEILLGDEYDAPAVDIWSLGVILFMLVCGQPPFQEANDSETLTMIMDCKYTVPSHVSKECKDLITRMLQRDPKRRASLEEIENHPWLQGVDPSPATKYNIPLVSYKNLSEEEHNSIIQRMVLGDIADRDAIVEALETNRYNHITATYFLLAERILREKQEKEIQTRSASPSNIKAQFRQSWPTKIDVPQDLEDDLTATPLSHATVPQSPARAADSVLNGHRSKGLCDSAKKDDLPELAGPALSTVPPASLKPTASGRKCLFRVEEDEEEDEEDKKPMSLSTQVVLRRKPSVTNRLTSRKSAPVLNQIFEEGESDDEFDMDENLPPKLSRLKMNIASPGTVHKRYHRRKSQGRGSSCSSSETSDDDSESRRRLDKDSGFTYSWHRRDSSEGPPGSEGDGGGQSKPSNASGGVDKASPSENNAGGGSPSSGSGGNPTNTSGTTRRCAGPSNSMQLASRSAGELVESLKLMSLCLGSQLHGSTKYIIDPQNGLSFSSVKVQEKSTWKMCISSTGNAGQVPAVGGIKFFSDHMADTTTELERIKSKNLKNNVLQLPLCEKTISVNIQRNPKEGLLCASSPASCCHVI

# Series 1 — technique: universal PBM; molecule type: double-stranded DNA, one strand shown; sample: in vitro; tested at: not given; reading: higher = stronger binding
# Target: Sal-like protein 4, full length isoform B (SALL4, Homo sapiens, UniProt Q9UJQ4-2, residues 1-616)
# Setting: 8-mer, flanks averaged, mean of replicates
# Residues (chain): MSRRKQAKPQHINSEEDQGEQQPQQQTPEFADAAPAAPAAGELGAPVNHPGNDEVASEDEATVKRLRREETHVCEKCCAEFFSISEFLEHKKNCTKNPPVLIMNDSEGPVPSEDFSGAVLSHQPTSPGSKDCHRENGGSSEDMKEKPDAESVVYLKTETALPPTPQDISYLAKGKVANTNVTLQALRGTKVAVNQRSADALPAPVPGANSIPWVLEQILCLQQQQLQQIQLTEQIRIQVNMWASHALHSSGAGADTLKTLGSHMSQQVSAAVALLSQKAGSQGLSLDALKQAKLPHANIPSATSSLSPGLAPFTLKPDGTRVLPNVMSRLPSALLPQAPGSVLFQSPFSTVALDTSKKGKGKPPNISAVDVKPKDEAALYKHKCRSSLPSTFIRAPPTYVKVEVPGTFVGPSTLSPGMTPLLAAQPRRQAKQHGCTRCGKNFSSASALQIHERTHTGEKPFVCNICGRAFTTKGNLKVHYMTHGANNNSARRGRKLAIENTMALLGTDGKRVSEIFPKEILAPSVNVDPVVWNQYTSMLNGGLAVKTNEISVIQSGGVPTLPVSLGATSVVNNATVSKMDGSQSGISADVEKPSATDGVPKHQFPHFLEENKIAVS
Oligonucleotide,E-score
GGTGCTTA,-0.0707
CGCCTAAC,-0.155
AAAAACAG,0.112
CGCAAAAC,0.0354
GGACTTGA,-0.148
AGCCAACT,-0.0713
GACAGAGC,-0.232
TCGACACA,0.0731

# Series 2 — read-out: cell-free assay; technique: competition with immobilised ligand; tested at: 1 µM
# Structure (SMILES): O=C(Nc1cnc(Oc2ccc(F)cc2)nc1)N1CCc2ncccc2[C@@H]1c1ccc(F)cc1
target,remaining binding [%]
"Mitogen-activated protein kinase kinase kinase kinase 5 (MAP4K5, Homo sapiens, UniProt Q9Y4K4)",77
"Receptor-interacting serine/threonine-protein kinase 1 (RIPK1, Homo sapiens, UniProt Q13546)",99
"Activated CDC42 kinase 1 (TNK2, Homo sapiens, UniProt Q07912)",93
"SNF-related serine/threonine-protein kinase (SNRK, Homo sapiens, UniProt Q9NRH2)",90

# Series 3 — species: human; sample: microsomes or S9; tested at: 2 µM; time: 0.5 h
Structure (SMILES),remaining compound [%]
COc1ccccc1-c1nc(CN(C)S(=O)(=O)c2c(C)cc(C)cc2C)c(C)o1,0.0125
Cc1ccc(Nc2nc3ccccc3n3nnnc23)cc1,5.91
COc1cc(OC)cc(-c2nnc(SCC(=O)NC3CC4CCC3C4)[nH]2)c1 (stereo not drawn),1.84

# Series 4 — SMILES: COc1cccc(-c2cc(=O)c3ccccc3o2)c1N; read-out: enzyme activity; mode: inhibitor; tested at: 0.5 µM; baseline: control
target,remaining activity [%]
"Fibroblast growth factor receptor 1 (FGFR1, Homo sapiens, UniProt P11362)",96.8
"Serine/threonine-protein kinase Nek6 (NEK6, Homo sapiens, UniProt Q9HC98)",102
"Serine/threonine-protein kinase TBK1 (TBK1, Homo sapiens, UniProt Q9UHD2)",94.3
"MAP kinase-activated protein kinase 2 (MAPKAPK2, Homo sapiens, UniProt P49137)",102
"Mitogen-activated protein kinase 3 (MAPK3, Homo sapiens, UniProt P27361)",102
"Wee1-like protein kinase (WEE1, Homo sapiens, UniProt P30291)",83
"Tyrosine-protein kinase JAK3 (JAK3, Homo sapiens, UniProt P52333)",96.9
"Serine/threonine-protein kinase Nek1 (NEK1, Homo sapiens, UniProt Q96PY6)",81.2
"Mitogen-activated protein kinase kinase kinase 14 (MAP3K14, Homo sapiens, UniProt Q99558)",108
"Fibroblast growth factor receptor 3 (FGFR3, Homo sapiens, UniProt P22607)",91
"Glycogen synthase kinase-3 beta (GSK3B, Homo sapiens, UniProt P49841)",95.7
"Macrophage-stimulating protein receptor (MST1R, Homo sapiens, UniProt Q04912)",93.4
"Serine/threonine-protein kinase TAO2 (TAOK2, Homo sapiens, UniProt Q9UL54)",96
"Casein kinase I isoform gamma-2 (CSNK1G2, Homo sapiens, UniProt P78368)",98.4
"Angiopoietin-1 receptor (TEK, Homo sapiens, UniProt Q02763)",93.1

# Excerpt of the above (series 1):
Oligonucleotide,E-score
CGCAAAAC,0.0354
GGACTTGA,-0.148
AGCCAACT,-0.0713
GACAGAGC,-0.232
TCGACACA,0.0731
